Experimental data gathered from unrelated publications.
Each line is one published result; not all experiments were run side by side. ± gives the spread as reported.

[64Cu+2].c1cnc(CNCc2ccc(CN3CCCN4CCNCCCN(CC4)CC3)cc2)nc1 — retained radioactivity (C-X-C chemokine receptor type 4 (CXCR4, Homo sapiens, UniProt P61073); NOD/SCID mouse, U87-stb-CXCR4 tumour; dose not given, 90 to 240 min; relative to: maximum uptake): ~70%
O=C([O-])CN1CCN(CC(=O)[O-])CCN(C(CCC(=O)NC(Cc2c[nH]c3ccc(O)cc23)C(=O)NCCc2c[nH]c3ccc(O)cc23)C(=O)O)CCN(CC(=O)[O-])CC1.[Gd+3] (centres unmarked) — R1 ratio change (myeloperoxidase; 0.5 mM, 3 h, 40 °C, added: glucose oxidase and glucose; relative to: MPO-Gd): > 3 fold
COC(=O)c1cnc(-c2cnccn2)cc1C(=O)OC.COC(=O)c1cnc(-c2cnccn2)cc1C(=O)OC.F[P-](F)(F)(F)(F)F.[Ag+] — fluorescence quenching (calf thymus DNA; ethidium bromide displacement): 17.9%
CC[C@H](C)[C@H](NC(=O)[C@H](CCCNC(=N)N)NC(=O)[C@H](CCC(N)=O)NC(=O)[C@@H](NC(=O)[C@@H](NC(=O)[C@H](CCCNC(=N)N)NC(=O)[C@H](CCCCN)NC(=O)[C@@H](N)Cc1ccccc1)[C@@H](C)CC)C(C)C)C(=O)N[C@@H](CCCCN)C(=O)N[C@@H](CC(=O)O)C(=O)N[C@@H](Cc1ccccc1)C(=O)N[C@@H](CC(C)C)C(=O)N[C@@H](CCCNC(=N)N)C(=O)O — maximal release (MRGPRX2 human; degranulation, agonist, refers to: β-hexosaminidase; LAD2; relative to: total): 70%
CC[C@H](C)[C@@H]1NC(=O)[C@H](Cc2ccc(O)cc2)NC(=O)[C@@H](N)CSSC[C@@H](C(=O)N2CCC[C@H]2C(=O)N2CCC[C@H]2C(=O)NCC(N)=O)NC(=O)[C@H](CC(N)=O)NC(=O)[C@H](CCC(N)=O)NC1=O — EC50 (vasopressin V1a receptor, Callithrix jacchus; calcium mobilization, agonist, FLIPR Fluo-3; CHO transfected with receptor): 0.00339 µM
Nc1nc2ccc3ccccc3c2s1 — inhibition (MeAIB/glutamine transporter, rat; MeAIB uptake; hippocampal neurons, rat; 20 µM, added: [14C]MeAIB 23.4 µM): > 90%
Cc1cc(N)c2cc(NC(=O)C(=O)Nc3ccc4nc(C)cc(N)c4c3)ccc2n1 — IC50 (unfractionated heparin; heparin neutralization, factor Xa chromogenic; added: heparin 0.2 IU/mL, antithrombin III): 1.2 ± 0.04 µM
CC(C)[C@H](NC(=O)[C@@H]1CCCN1C(=O)[C@H](C)NC(=O)[C@H](CO)NC(=O)[C@H](C)NC(=O)[C@H](CC(N)=O)NC(=O)[C@H](CCC(=O)O)NC(=O)[C@@H](NC(=O)[C@H](CC(=O)O)NC(=O)[C@H](CCCCN)NC(=O)[C@H](C)NC(=O)[C@H](CCC(N)=O)NC(=O)[C@H](Cc1ccccc1)NC(=O)[C@H](C)NC(=O)[C@H](Cc1c[nH]c2ccccc12)NC(=O)[C@H](C)NC(=O)[C@@H](NC(=O)CN)C(C)C)C(C)C)C(=O)O — time to complete macrocyclization (PCY1 peptide cyclase, Saponaria vaccaria; substrate, LC-MS; 200 µM, pH 8.5, 30 °C, added: PCY1 3.6 µM): ~30 min
Cc1cccc(C)c1NC(=O)[C@H]1CCCN1Cc1ccccc1 — shift of steady-state inactivation (Nav1.4 sodium channel; vaseline gap voltage clamp; Pelophylax lessonae skeletal muscle; 30 µM): 14.4 ± 2.7 mV
CCN(CC)CCCC(C)Nc1cc[n+]([Ru-]([Cl])[Cl])c2cc(Cl)ccc12.c1ccccc1 (centres unmarked) — delta Tm (calf thymus DNA; thermal denaturation; 0.5 equivalents per DNA, 1 h, pH 7.39, 25 °C, 25 mM NaClO4): 4.4 °C
O=C(C1CCCCC1)N1CC(=O)N2CCc3ccccc3[C@@H]2C1 — selectivity ratio (flatworm TRPM_PZQ channel orthologs; relative to: most over least sensitive ortholog): ~330 fold
O=C(/C=C/c1ccccc1)OCCCC[P+](c1ccccc1)(c1ccccc1)c1ccccc1 — SOD activity (superoxide dismutase, rat liver mitochondria; 10 µM, 15 and 30 min): no effect
Cc1ccc(C(C)C)cc1.[C-]#[O+].[C-]#[O+].[C-]#[O+].[Cl-].[Cl-].[Cl-].[Re+].[Ru+2].c1cnc(-c2ncccn2)nc1 — Stern-Volmer constant (calf thymus DNA; ethidium bromide displacement): 14000 M⁻¹
OB1c2sccc2C=NN1Cc1ccccc1 — inhibition (human pancreatic chymotrypsin; enzyme activity, inhibitor; 100 µM): inactive

Repeated from above:
Cc1cccc(C)c1NC(=O)[C@H]1CCCN1Cc1ccccc1 — shift of steady-state inactivation (Nav1.4 sodium channel; vaseline gap voltage clamp; Pelophylax lessonae skeletal muscle; 30 µM): 14.4 ± 2.7 mV
